# Measured values of several laboratories.
# Every numbered part comes from another study and shows a few of its results, in no order. Several values in a cell are separate wells, animals, samples, runs or records.

# Sample 1
# Structure (SMILES): Cn1cc(-c2cccc(CN3CCC4(CC3)COc3c4ccc4c3CN([C@H]3CCC(=O)NC3=O)C4=O)c2)cn1
# Route: oral
test system,conditions,oral bioavailability
"rat, plasma","2.98 mg/kg, group mean",118%
cynomolgus monkey,3 mg/kg,42.8% and 43.5% and 64%
rat,"3 mg/kg, approximate dose",116% and 153% and 83.3%

# Other studies, line by line
SMILES,target or system,assay,test system,conditions,measurement,value
N=C(N)NCCCCCCN1CCC23c4c5ccc(O)c4OC2c2nc4ccccc4cc2CC3(O)C1C5 (stereo not drawn),"OPRK1 (Homo sapiens, UniProt P41145)",cell-free assay,,,Ki,457 nM
CC[C@H](C)[C@H](NC(=O)[C@H](CO)NC(=O)[C@H](CCCNC(=N)N)NC(=O)[C@H](CCCNC(=N)N)NC(=O)[C@H](C)NC(=O)[C@H](CC(N)=O)NC(=O)[C@@H](N)CO)C(=O)N[C@@H](CC(N)=O)C(=O)N[C@@H](Cc1ccccc1)C(=O)NCC(=O)NCC(=O)N[C@@H](CO)C(=O)N[C@H](C(=O)O)[C@@H](C)O,"Cyclin-dependent kinase 2/cyclin E1 (Homo sapiens, UniProt P24864+P24941)","binding, competitive fluorescence polarization",,with: FITC-PKN2-RxL peptide tracer,Kd,30600 nM
CCCCCCCCN1CCC23c4c5ccc(O)c4OC2c2nc4ccccc4cc2CC3(O)C1C5 (stereo not drawn),"Delta-type opioid receptor, with β-arrestin1 (OPRD1, Homo sapiens, UniProt P41143)",agonist,,,EC50,2190 nM
COc1cc(-c2nc3ccc(C(=O)NCCCN4CCN(c5cccc(C)c5C)CC4)cc3n2C2CCC2)cc(OC)c1OC,"pknB (Mycobacterium tuberculosis, UniProt P9WI81)","binding, competition with immobilised ligand",,1 µM,remaining binding,78%
N=C(N)NCCCCCN1CC[C@]23c4c5ccc(O)c4O[C@H]2c2[nH]c4ccccc4c2C[C@@]3(O)[C@H]1C5,"Kappa-type opioid receptor, with Gi1 (OPRK1, Homo sapiens, UniProt P41145)",,human cells,,EC50,150 nM
COc1cc(C(=O)OCCCN2CCCN(CCCOC(=O)c3cc(OC)c(OC)c(OCc4ccc([N+](=O)[O-])cc4)c3)CC2)cc(OC)c1OC,,,"male CD-1 mouse, dorsal root ganglia","subcutaneous, dose not given, 12 h",tissue concentration,23.1 ng/mL
